# Measurements from different studies.
# Values joined by “and” are separate records of one study, mostly repeats; a detail may differ.
# Target: Fibroblast growth factor receptor 2 (FGFR2, Homo sapiens, UniProt P21802)
SMILES,test,setting,how to read,measurement,value
C=CC(=O)N1Cc2nc(-c3cc(-c4cc(Cl)cnc4Cl)c(F)cc3F)n(-c3ccncn3)c2C1,cell-free assay,1 µM,,inhibition,-5%
Cc1[nH]nc2c1N=C(c1ccccc1Cl)c1cnc(N3CCOCC3)cc1N2,"enzyme activity, inhibitor",0.5 µM,,inhibition,> 99%
CCn1cc(C(=O)O)c(=O)c2c(N)c(F)c(NC3CCCCC3)cc21,kinase activity,"0.1 µM, together with: ATP at Km",,inhibition,2.6%
Cc1cccc(O[C@H]2CCC[C@@H](C(C)CNCc3ccncc3)C2)c1 (relative stereo),cell-free assay,10 µM,,inhibition,-2%
Nc1ncc2c(n1)-c1c([nH]c3ccc(C4=CCOCC4)cc13)CCC2,"binding, competition with immobilised ligand",1 µM,,remaining binding,100%
CN1CCN(Cc2ccc(NC(=O)c3cccc(C#Cc4cnc(N)c5ncccc45)c3)cc2C(F)(F)F)CC1,"cell-free assay, competition with immobilised ligand",50 nM,,remaining binding,7.2%
COCC12C(=O)NC3C4(C(OC)CC1O)C1CC5(O)C(OC)C(O)C(OC(C)=O)(C1C5OC(=O)c1ccccc1)C3(O)C(OC)C24 (centres unmarked),"kinase activity, inhibitor, ProQinase kinase profiling",25 µM,baseline: control,remaining activity,119% and 116%
O=C=[N][Ru-4]123([n]4c5ccc(O)cc5c5c6c(c7cc(F)c[n+]1c7c54)C(=O)NC6=O)[S+]1CC[S+]2CC[S+]3CC1 (centres unmarked),enzyme activity,"100 nM, human enzyme, together with: 10 µM ATP",baseline: untreated,remaining activity,118%
Nc1ncc(-c2cc(-c3cnn(CC(F)(F)F)c3)ncc2F)nc1C(=O)NC1CNCC(F)C1 (centres unmarked),enzyme activity,1 µM,baseline: DMSO control,remaining activity,94%
C=CC(=O)Nc1cccc(-c2cnc3[nH]cc(C(=O)NC(C)(C)C)c3n2)c1,kinase activity,0.1 µM,,inhibition,41% and 39%
NC(=O)[C@@H](O)C[C@H]1CCc2sc3ncnc(O[C@H]4CC[C@H](N5CCOCC5)CC4)c3c21,"enzyme activity, inhibitor",10 µM,,inhibition,33%
COc1ccc(NC(=O)Nc2ccc3c(c2)C(=O)N(C(C)CO)CC(C)C(CN(C)Cc2ccc4c(c2)OCO4)O3)cc1 (centres unmarked),"binding, competition with immobilised ligand",10 µM,,remaining binding,77%
Cc1ccc(-c2c(/C=C(\C#N)C(=O)NC(C)C)n(CCCO)c3ncnc(N)c23)cc1,"cell-free assay, competition with immobilised ligand",1 µM,,remaining binding,100%
O=C(Cc1ccc(OCc2ccccc2)cc1)NC1(C(=O)O)CCN(C(=O)c2ccc(-c3cccc(Cl)c3)cc2)CC1,"enzyme activity, inhibitor",10 µM,,activity vs control,100%
